Measurements gathered from unrelated publications.
Numbered parts are unrelated; each lists some results of a single study. Substitutions count along the parent as printed.

Study 1 — technique: RNA Bind-n-Seq; molecule type: RNA; medium: in vitro; tested at: 200 nM; setting: whole 134-nt RNA, ends assumed; with: 150 mM KCl; reference: input library; reading: higher = stronger binding
Target: Ras GTPase-activating protein-binding protein 1, full length (G3BP1, Homo sapiens, UniProt Q13283)
Chain of UniProt Q13283 (whole entry, looked up): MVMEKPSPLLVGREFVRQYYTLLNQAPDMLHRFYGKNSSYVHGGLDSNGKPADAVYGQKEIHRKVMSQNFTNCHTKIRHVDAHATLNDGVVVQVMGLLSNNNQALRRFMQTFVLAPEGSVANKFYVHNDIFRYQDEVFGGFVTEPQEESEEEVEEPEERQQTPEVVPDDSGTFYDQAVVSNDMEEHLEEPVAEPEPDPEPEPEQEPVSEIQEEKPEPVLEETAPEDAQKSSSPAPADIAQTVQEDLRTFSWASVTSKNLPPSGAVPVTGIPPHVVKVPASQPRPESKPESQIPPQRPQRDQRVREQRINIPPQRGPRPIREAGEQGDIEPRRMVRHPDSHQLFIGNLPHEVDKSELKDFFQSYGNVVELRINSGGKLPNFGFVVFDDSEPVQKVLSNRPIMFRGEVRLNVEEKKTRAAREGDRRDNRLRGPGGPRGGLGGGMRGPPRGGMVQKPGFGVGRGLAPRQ
All sequences stand within: GGGAGUUCUACAGUCCGACGAUC … UGGAAUUCUCGGGUGUCAAGG
| Sequence | log2 enrichment |
| --- | --- |
| CAGUUUAAGAGGGGUUUCAUGCAAGGGCAUGUAAAUAGACAAGAAAAAGAAGAAAAAGAAGCAAUAUAUAAAGAACGUUGGCCAGAUUAU | -0.0853 |
| AGUCCUGUGCUACACAUCGUAUGUACCGAAUCGGGUUUUGGGUUUUGGGGUUUUGGGGAAAGUAUUAUGUUACGCCGUUCGGAUCUGCAC | 0.00287 |
| ACCAUGCAGGAAAGCAUCUUUGGGAAGUGGGGCAAGGGGGGGAUAGGGAGGGGGGUAACACUUUGGGAACAGGUGGUCCCAGGUCGUUUC | 1.31 |
| CCUCAAGUCCUGUGCUACACAUCGUAUGUACCGAAUCGGGUGGUGGGGUGGGAAAGUAUUAUGUUACGCCGUUCGGAUCUGCACUUCCAG | 0.951 |
| GCAGGAAGUAAAAACAAAUGGAAAUACUUCGGAUAGUGGCAGGGGUGGGGGUUGCUAAGGAAAGGGUGGGAUGGGAGUGGGUAAAGAGUU | 0.832 |
| UUAGGGAUGUGGCCAUAGAAUUCUCUCAGGAGGAGUGGAAAUGCCUGGACCCUGCUCAGAGGAUCUUAUACAGGGACGUGAUGUUGGAGA | 0.622 |
| CACAGACACCACGCACCCACACAGACACAGAGGGAAGGGGUUGGGAUGGGGACAGGGUGCACAGCAGGGCGGGGUAGGACCCCAGCCCCU | 1.78 |
| GUCCUGUGCUACACAUCGUAUGUACCGAAUCGGGAAAAAGGGUUUUUGGGUUUUUGGGAAAGUAUUAUGUUACGCCGUUCGGAUCUGCAC | -0.597 |

Study 2 — technique: competition protein-binding microarray; molecule type: double-stranded DNA, one strand shown; medium: in vitro; tested at: 2 µM; with: Cbf1 competitor, 0.05 µM; reading: higher = stronger binding; all sequences stand within: … GTCTTGATTCGCTTGACGCTGCTG
Target: Phosphate system positive regulatory protein PHO4, full length, GST-tagged (PHO4, Saccharomyces cerevisiae, UniProt P07270, residues 1-312)
Setting: whole 60-bp probe, lowest competitor level
Construct (chain): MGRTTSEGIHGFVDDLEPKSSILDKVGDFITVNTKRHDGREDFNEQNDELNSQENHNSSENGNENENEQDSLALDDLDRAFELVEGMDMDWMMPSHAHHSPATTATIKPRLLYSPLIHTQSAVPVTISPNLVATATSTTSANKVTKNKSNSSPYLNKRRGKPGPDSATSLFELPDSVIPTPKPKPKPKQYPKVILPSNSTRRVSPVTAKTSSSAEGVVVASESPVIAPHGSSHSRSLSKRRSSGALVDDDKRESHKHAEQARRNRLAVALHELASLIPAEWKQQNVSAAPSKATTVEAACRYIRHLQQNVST
| Sequence | fluorescence intensity [a.u.] |
| --- | --- |
| CCCTTGCATCGCTGCCGTGTGGCGCGACCCACTGCG | 5310 |
| CGTCCTAGCGATTATCACGTGTTTTCCATGAGGAAG | 19600 |
| GAAGGAGGACTTTCCCTTGTGACAGTCTTGACTTTT | 3320 |
| CGGGGTTAAGTTTTTCACGTGATATGCTTGCAGCAG | 12200 |
| GCTCAAGCGTTCGGACGCGTGAAATGCTTCAACTGA | 4020 |
| GATTTTGGCCGCTGGCACGTGCAGTTTCTATTAACT | 18400 |
| TGCGCAACAACTTGTTCCGTGGGTGTATGTCTAGAA | 5140 |
| AAATTATAATTCGCTCTCATGATAACCACATCTGTC | 3910 |
| TGTTGAAGACCTCACTTCGTGACGGTTCGGCTTCGA | 4150 |
| AAAGCGGTAATTTTTCACGTGCCATCACATATCTAT | 14100 |
| CTAATTAAACCTTCACACATGCATAACTATAATGCA | 9010 |
| CATACCCAACCTTGGCGAGTGGGTGAAGATATTTGT | 4340 |

Study 3 — target: CCNB1, cyclin fold, Cln2 fusion (human); technique: yeast growth competition, sequencing; medium: yeast; setting: weak parent motif; reference: not given; reading: higher = stronger binding
Parent: RBL1 docking peptide (human); GSAKRRLFGEDPP
| Change | normalised enrichment score |
| --- | --- |
| GSAKRRLFGERPP [D11R] | 0.654 |
| GSAKRRLFGLDPP [E10L] | 1.05 |
| GSAKRRLMGEDPP [F8M] | 0.317 |
| GSWKRRLFGEDPP [A3W] | 1.12 |
| GSACRRLFGEDPP [K4C] | 1.12 |
| GSAKRRLFGEDMP [P12M] | 0.0928 |
| GSAKRRLFGEDPS [P13S] | 0.407 |
| GSAKRRLFGEDPM [P13M] | 0.21 |
| GSAKRVLFGEDPP [R6V] | 0.643 |
| GSAKRFLFGEDPP [R6F] | 0.09 |
| GSAKRRLFGADPP [E10A] | 0.618 |
| GSAKRWLFGEDPP [R6W] | 0.0744 |
| GSIKRRLFGEDPP [A3I] | 1.06 |
| GSPKRRLFGEDPP [A3P] | 0.482 |
| QSAKRRLFGEDPP [G1Q] | 0.326 |
| GSAKRKLFGEDPP [R6K] | 0.648 |
| GSAKRRLFGEDPT [P13T] | 0.702 |
| GLAKRRLFGEDPP [S2L] | 0.105 |
| GSAKRRLFGEDPL [P13L] | 1.58 |

Study 4 — technique: protein-binding microarray; molecule type: double-stranded DNA, one strand shown; medium: in vitro; tested at: not given; reading: higher = stronger binding
Target: Transcriptional repressor CTCF (CTCF, Homo sapiens, UniProt P49711, residues 1-727, full length assumed)
Chain of UniProt P49711 (whole entry, looked up): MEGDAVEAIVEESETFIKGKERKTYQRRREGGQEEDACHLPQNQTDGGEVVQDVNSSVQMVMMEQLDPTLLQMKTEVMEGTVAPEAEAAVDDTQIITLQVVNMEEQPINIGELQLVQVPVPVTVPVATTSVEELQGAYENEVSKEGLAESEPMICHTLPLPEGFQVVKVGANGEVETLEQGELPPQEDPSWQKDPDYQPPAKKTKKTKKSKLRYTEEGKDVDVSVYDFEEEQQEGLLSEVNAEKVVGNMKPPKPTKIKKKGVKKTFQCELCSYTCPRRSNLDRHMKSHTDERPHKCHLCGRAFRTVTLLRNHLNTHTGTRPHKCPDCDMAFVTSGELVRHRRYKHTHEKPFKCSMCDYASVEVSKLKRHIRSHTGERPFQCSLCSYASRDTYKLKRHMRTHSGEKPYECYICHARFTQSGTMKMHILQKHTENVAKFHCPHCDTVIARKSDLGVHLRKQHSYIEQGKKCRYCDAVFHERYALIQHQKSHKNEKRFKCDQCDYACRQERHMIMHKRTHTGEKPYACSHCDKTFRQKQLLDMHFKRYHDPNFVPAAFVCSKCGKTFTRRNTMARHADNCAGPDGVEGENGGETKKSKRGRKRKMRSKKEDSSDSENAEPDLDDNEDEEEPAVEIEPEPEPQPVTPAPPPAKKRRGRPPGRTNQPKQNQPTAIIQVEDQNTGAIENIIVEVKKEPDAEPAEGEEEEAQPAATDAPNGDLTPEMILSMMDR
Setting: k-mer, scored over probes, only values ≥0.25
| Sequence | E-score |
| --- | --- |
| ATATTGCG | 0.282 |
| ACATGTGG | 0.252 |
| GTAGCGCA | 0.313 |
| ATGCATTA | 0.313 |
| AAGCGCTT | 0.266 |
| GCATGCGA | 0.265 |
| AGTACTAC | 0.251 |
| AATACTCG | 0.265 |
| ATGTTAAA | 0.257 |
| TTATTGAA | 0.259 |
| ATTATACC | 0.316 |
| AGCGCGCG | 0.289 |
| AGGTGGCG | 0.416 |
| CGCATTAC | 0.302 |

Some of these lines once more (study 4):
| Sequence | E-score |
| --- | --- |
| ATATTGCG | 0.282 |
| GTAGCGCA | 0.313 |
| ATTATACC | 0.316 |
| AGGTGGCG | 0.416 |
| AGCGCGCG | 0.289 |
| AAGCGCTT | 0.266 |
| ATGCATTA | 0.313 |
| CGCATTAC | 0.302 |
